Measured values of several laboratories.
A part holds a random share of what one study measured.

Series 1
Target: Histone acetyltransferase KAT6A, both winged helices, GST fusion (KAT6A, Homo sapiens, UniProt Q92794, residues 1-181)
Technique: protein binding microarray
Molecule type: double-stranded DNA, one strand shown
Sample: in vitro
Concentration: not given
Setting: 8-mer, flanks averaged, mean of 2 arrays, mostly near background
Reference: not given
Direction: higher = stronger binding
Measurement: E-score
Residues (chain): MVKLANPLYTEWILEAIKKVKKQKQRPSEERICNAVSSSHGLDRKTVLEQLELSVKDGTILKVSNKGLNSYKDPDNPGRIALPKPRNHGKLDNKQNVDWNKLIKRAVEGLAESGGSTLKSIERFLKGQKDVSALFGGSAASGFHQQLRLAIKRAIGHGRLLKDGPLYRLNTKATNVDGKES
ACGGTGGA: -0.034
AAGTAGCT: -0.266
AGTGTCGA: -0.0297
GGCACACC: -0.0861
ACCGACAC: 0.134
ATTAGATG: -0.107
GTCGAAGA: -0.0819
TATAATGA: -0.0215
CATCCAAA: -0.213

Series 2
Target: Ras GTPase-activating protein-binding protein 1, full length (G3BP1, Homo sapiens, UniProt Q13283)
Sequence of UniProt Q13283 (whole entry, looked up): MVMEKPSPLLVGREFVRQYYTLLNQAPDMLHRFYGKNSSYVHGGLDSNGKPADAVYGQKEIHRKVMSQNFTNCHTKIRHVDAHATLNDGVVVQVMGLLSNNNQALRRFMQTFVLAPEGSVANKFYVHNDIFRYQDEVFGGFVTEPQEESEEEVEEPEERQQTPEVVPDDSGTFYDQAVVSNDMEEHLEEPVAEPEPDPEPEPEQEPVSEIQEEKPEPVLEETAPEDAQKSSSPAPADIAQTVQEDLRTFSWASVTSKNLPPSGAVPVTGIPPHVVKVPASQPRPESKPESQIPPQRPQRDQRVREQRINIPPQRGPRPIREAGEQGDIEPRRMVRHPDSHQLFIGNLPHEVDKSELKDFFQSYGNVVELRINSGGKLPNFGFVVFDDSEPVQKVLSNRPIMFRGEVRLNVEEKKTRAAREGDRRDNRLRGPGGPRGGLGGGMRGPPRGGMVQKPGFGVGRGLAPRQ
Technique: RNA Bind-n-Seq
Molecule type: RNA
Sample: in vitro
Concentration: 200 nM
Setting: whole 134-nt RNA, ends assumed
With: 150 mM KCl
Reference: input library
Direction: higher = stronger binding
Measurement: log2 enrichment
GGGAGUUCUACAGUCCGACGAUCCCUCAAGUCCUGUGCUACACAUCGUAUGUACCGAAUCGGAAAGGAAAGGAGGAAAGUAUUAUGUUACGCCGUUCGGAUCUGCACUUCCAGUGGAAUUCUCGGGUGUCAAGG: -0.00567
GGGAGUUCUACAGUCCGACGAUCUCAAGUCCUGUGCUACACAUCGUAUGUACCGAAUCGGGGCCCGGCCCGGCCCGGAAAGUAUUAUGUUACGCCGUUCGGAUCUGCACUUCCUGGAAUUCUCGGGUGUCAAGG: -0.584
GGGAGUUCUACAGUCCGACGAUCGUCCUGUGCUACACAUCGUAUGUACCGAAUCAAACCCCCCCAAAUUUAAACCCCCAAAAAAGUAUUAUGUUACGCCGUUCGGAUCUGCACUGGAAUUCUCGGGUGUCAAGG: -0.0255
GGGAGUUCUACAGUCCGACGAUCGCAGGAAGUAAAAACAAAUGGAAAUGCUUCGGAUAGUGGCAGGGGUGGGGGUCGCUAAGGAAAGGGUGGGAUGGGAGUGGGUAAAGAGUUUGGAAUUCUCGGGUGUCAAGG: 0.624
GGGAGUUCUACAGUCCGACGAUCUCAAGUCCUGUGCUACACAUCGUAUGUACCGAAUCGGUUUUUGGUGGAAAAAGGAAAGUAUUAUGUUACGCCGUUCGGAUCUGCACUUCCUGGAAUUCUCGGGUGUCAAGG: -0.819

Series 3
Target: Interferon regulatory factor 7, full length, phosphomimetic (IRF7, Homo sapiens, UniProt Q92985, residues 1-503, S471D/S472D/S475D/S476D/S477D/S483D/S484D/S487D)
Technique: protein-binding microarray
Molecule type: double-stranded DNA, one strand shown
Sample: in vitro
Concentration: 2200 nM top
Setting: 60-bp whole probe
With: salmon DNA 0.4 mg/ml
Reference: random background probes
Direction: higher = stronger binding
Measurement: fitted relative affinity
Constant ends, left off below: GCCTAGCAC … GTCTTGATTCGCTTGACGCTGCTG
Target sequence (chain): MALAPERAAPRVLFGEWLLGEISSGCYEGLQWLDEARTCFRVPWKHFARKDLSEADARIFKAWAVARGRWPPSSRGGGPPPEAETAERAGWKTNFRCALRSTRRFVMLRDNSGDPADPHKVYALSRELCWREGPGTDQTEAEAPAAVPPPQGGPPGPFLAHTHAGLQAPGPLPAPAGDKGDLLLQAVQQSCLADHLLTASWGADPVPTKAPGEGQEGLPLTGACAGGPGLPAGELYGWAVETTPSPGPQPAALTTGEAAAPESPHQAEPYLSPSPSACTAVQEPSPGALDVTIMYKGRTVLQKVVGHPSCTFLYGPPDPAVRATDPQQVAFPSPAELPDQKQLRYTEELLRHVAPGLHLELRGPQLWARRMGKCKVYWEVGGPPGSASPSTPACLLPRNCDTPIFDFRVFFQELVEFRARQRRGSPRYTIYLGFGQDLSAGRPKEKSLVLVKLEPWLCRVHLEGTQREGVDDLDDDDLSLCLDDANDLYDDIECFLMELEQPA
TTAGGTTTCGCCTATCGGTTAGTGCTA: 3.6 z-score
GACGGGATCGGACTGGGGACGTGCTAG: -0.569 z-score
TCATTTTTTTCTTTAAAACTGTGCTAG: 1.31 z-score
TTAGAAGTGGGGTATCGATTAGTGCTA: 0.0872 z-score
TCAACCCTCCCTCTGTAACTGTGCTAG: 1.46 z-score
TTAGATTTCAGTCTCGATAAGTGCTAG: 0.459 z-score

Mixed results
PhoQ, residues 284 288 289 292 302 303 AAQSYM
fold induction (PhoP, residues 12 14 15 18 19 LHATL (Escherichia coli, UniProt P23836); Sort-seq, item: YFP reporter; E. coli; PhoQ-PhoP variant library, with: 10 µM Mg2+; reference: high Mg2+ state, higher = stronger signaling): 19.7

Excerpt of the above (series 3):
TCATTTTTTTCTTTAAAACTGTGCTAG: 1.31 z-score
